Assay results gathered from unrelated publications.
Every numbered part comes from another study and shows a few of its results, in no order.

Block 1
Target: Sal-like protein 4, full length isoform A (SALL4, Homo sapiens, UniProt Q9UJQ4, residues 1-1053)
UniProt Q9UJQ4, sequence (whole entry, looked up): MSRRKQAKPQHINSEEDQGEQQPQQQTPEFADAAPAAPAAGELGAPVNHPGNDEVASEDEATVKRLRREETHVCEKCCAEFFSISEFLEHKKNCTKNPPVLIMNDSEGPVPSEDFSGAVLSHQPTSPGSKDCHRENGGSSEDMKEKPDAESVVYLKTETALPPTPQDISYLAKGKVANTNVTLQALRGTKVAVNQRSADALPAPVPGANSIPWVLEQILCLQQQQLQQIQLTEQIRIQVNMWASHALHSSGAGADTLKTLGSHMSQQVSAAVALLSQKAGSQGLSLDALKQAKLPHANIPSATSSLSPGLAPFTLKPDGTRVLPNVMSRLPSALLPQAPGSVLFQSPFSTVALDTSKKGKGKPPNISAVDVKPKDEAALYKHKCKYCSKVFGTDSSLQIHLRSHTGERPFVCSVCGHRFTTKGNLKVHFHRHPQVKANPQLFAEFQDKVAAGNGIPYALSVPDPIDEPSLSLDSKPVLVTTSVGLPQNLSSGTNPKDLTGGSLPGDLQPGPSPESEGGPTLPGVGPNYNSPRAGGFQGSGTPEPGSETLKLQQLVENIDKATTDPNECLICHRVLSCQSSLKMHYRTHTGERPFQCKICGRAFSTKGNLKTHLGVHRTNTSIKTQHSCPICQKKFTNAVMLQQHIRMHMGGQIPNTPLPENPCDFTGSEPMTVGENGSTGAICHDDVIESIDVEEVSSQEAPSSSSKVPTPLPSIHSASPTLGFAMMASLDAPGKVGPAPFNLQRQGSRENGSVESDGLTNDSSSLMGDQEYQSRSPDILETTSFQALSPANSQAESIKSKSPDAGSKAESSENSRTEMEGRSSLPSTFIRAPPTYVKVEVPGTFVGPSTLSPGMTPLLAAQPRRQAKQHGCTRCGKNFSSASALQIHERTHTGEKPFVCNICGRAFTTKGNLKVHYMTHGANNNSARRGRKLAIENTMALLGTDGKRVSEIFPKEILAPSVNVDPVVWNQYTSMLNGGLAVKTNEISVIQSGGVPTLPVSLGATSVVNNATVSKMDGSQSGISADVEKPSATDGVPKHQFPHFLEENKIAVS
Method: universal PBM
Form: double-stranded DNA, one strand shown
Medium: in vitro
Tested at: 600 nM
Notes: 8-mer, flanks averaged, mean of replicates
Direction: higher = stronger binding
The E-score of `AATTGCCT` is reported as 0.201.
With `CAGCTTAG` the E-score was -0.159.
For `TCCTCACA`, the E-score was 0.053.
`GATGAAGC` gave an E-score of -0.0827.
For `AGGGGTAA`, the E-score was -0.0408.
The E-score of `CATGGTAA` is reported as 0.179.
With `AATAGACG` the E-score was 0.108.
`CGTCAATA` gave an E-score of 0.176.
`ACTTCCTG` gave an E-score of -0.0523.
`CCTTCTAC` has an E-score of -0.0959.
With `CTGGTTAC` the E-score was -0.165.
With `ACAGCCCG` the E-score was -0.271.
`ACCTTGGC` gave an E-score of -0.168.
With `CTTCGTTC` the E-score was -0.0532.

Block 2
Target: RNA binding protein fox-1 homolog 2, RRM domain, GST-SBP tag (RBFOX2, Homo sapiens, UniProt O43251-10, residues 100-194)
Method: RNA Bind-n-Seq
Form: RNA
Medium: in vitro
Tested at: 365 nM
Notes: natural RNA segment, single round, ends assumed
Baseline: no-protein control
Direction: higher = stronger binding
Residues (chain): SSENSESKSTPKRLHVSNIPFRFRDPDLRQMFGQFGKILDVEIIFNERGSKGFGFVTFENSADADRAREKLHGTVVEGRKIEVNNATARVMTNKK
For `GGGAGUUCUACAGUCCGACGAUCAGAAAAAUAAAACAAGCUGCAUUUAUAGACUUGCUUGGAAUUGAAAUGAACAUAGCCAGUUCCUACCCAACCCUGCCCUGCCUUUUUUUUUUUUUUUAAAGUGUGGUCCUUGGAAUUCUCGGGUGCCAA`, “RBNS enrichment (R)” read 0.546.
`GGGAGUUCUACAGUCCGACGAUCGGUUCCUCUAUUGGCUCUGCUCAAAUGUUGCAGGAUACAUAGCCCCAAAGAUGGUCUAGGAGCAAUCUAAGCUGUGUUACUCCAAAGGACAUGAAAAAGCUCAAGAGUAAUGGAAUUCUCGGGUGCCAA`: “RBNS enrichment (R)” 0.35.
Under “RBNS enrichment (R)”, `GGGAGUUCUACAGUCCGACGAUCGACUGGCCGUGAUGGGAAUGACAGUGAGAAGGUCCGCCUGUGCGCGUGGAACACUGUGGACGCUCGACUUCCAAGGGUCUUCUCACCCGUAAUGCUGCAUUACAUGUAGGUGGAAUUCUCGGGUGCCAA` is recorded as 0.651.
`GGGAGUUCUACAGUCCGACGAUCUUGUUUCUGGUUCACGUGGGGCCACCUGAAUCCGUGUCUGUGAGCAUUGACGCUUGAGUGAGCACGCCAGCGUCCUUGUCCUUAUGGGAUGCCUCAGGAUCUUGUUUCUGUGGAAUUCUCGGGUGCCAA`: “RBNS enrichment (R)” 0.525.
Under “RBNS enrichment (R)”, `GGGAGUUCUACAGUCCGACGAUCAGUCUUGUUACUCAAUGACUUUUGUCAUGGCAGUUUGUUCUACUUUAGACUGUAAAUUAUGCAUUAUAAAGAGUUCAUUUAAAGAAAACUACUUGGUACAAUAAUUAUUGUGGAAUUCUCGGGUGCCAA` is recorded as 0.356.
For `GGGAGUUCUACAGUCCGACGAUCCACACCUGGCCAAGAAUACCACUUUUGAAGUUAAUCCUUUUGUGUGAUACAGGAUGAACUUGGGAUGUUUGAACCCUGGACAUUCCAAAUAAAGAAUAGGCCCCUGCCUGUGGAAUUCUCGGGUGCCAA`, “RBNS enrichment (R)” read 0.472.
Under “RBNS enrichment (R)”, `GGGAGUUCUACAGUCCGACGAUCUUUUUGUCCUUGCAGACAGAAUAUAAAAACUCCUGGGCUUAAGGCCUAAGGAAGCCAGUCACCUUCUGGGCAAGGGCUCCUAUCUUUCCUCCCUAUCCAUGGCACUAAACUGGAAUUCUCGGGUGCCAA` is recorded as 0.518.
For `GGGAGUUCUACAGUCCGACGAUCGGAGUGAUUCCUAGAAGACGGAUCAGUCUAGUCUGGCAGUCAAGGCUCAGGAGUUUGGGAGAGGGGCAGGAGAAGGAUAAGAAAGCCUGGGUUUUAGGCUUGCCUGGGAAUGGAAUUCUCGGGUGCCAA`, “RBNS enrichment (R)” read 0.879.
`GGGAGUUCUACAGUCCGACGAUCUGGGACUACAGGCGCCUACCACCACGCCCAGCUAAGUUUUGUAUUUUUAGUAGAGUCAGGGUUUCACCAUGUUGGCCAGGCUGGUCUUGAAUUCCUGACCUCAAAUGAUCUGGAAUUCUCGGGUGCCAA`: “RBNS enrichment (R)” 0.508.
For `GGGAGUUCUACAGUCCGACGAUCGAUGGAAAGAUAUAAUUAACGAUCAAAGAGCUCUAAGAAAAUUGCAAAGAAGCCUUAAUGUUCAAGCUUUAGAAAGAUCAGAGCAAUUUUUCUCUUUCAGUCCAAACUAAUGGAAUUCUCGGGUGCCAA`, “RBNS enrichment (R)” read 0.713.
`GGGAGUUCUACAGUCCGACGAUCGAGCGAUUCCAUAUCUCCACUCAGACCCUGUGGACUACAGUGUUCCGCUGUGGUGGCUGCCAAGAUGCCUUCUUAAACUUAUGCAAGGAAACCAAACCCUCCCACAGUUCUGGAAUUCUCGGGUGCCAA`: “RBNS enrichment (R)” 0.276.
Under “RBNS enrichment (R)”, `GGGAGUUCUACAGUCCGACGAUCAGAACAUGUUAGCAGUCUGUCAGACCUGAGCUCUGGCAUGUGCGACAGCACGUUACUAAAGCAGUUACAUGCAUGUUGCGCUACCCUCAUCUGGUAUAGAGACCUGCAUUUGGAAUUCUCGGGUGCCAA` is recorded as 0.513.

Block 3
Target: Transcription factor Sp1 (SP1, Homo sapiens, UniProt P08047, residues 1-785, full length assumed)
UniProt P08047, sequence (whole entry, looked up): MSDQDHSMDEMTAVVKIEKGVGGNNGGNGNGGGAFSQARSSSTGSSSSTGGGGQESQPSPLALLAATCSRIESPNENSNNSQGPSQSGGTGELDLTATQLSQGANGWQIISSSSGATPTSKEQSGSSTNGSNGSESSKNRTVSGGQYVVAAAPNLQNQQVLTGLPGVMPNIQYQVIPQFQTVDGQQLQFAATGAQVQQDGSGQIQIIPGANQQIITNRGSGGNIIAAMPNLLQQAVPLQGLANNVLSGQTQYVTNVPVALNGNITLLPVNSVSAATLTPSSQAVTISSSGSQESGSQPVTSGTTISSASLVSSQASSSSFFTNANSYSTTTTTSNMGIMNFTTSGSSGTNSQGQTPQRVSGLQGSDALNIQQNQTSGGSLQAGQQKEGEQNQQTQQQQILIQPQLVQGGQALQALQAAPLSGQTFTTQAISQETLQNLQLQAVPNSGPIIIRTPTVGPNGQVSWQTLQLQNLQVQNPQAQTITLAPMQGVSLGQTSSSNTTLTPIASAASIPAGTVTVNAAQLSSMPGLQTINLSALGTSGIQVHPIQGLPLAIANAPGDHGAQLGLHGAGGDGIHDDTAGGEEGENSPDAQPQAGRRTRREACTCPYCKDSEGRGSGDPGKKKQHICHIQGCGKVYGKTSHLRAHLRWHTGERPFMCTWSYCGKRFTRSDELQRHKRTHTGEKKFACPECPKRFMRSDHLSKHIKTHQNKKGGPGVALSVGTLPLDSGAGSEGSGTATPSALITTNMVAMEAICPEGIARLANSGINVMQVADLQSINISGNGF
Method: protein-binding microarray
Form: double-stranded DNA, one strand shown
Medium: in vitro
Tested at: not given
Notes: k-mer, scored over probes, only values ≥0.25
Direction: higher = stronger binding
For `CCACCCCG`, the E-score was 0.345.
For `CTACGCCC`, the E-score was 0.284.
`CGCCCCTA` gave an E-score of 0.455.
`AATACAAA` has an E-score of 0.25.
`ACATGTGG` gave an E-score of 0.297.
`AGGGGCAA` gave an E-score of 0.313.
`ACTGTTAC` gave an E-score of 0.256.
With `GCCCTCCC` the E-score was 0.418.
With `AACCCATA` the E-score was 0.276.
The E-score of `TCACCCCA` is reported as 0.354.
With `CCACCCCC` the E-score was 0.427.
With `AGACAGAT` the E-score was 0.256.
With `ATGGGCGG` the E-score was 0.462.
With `GGGGTGTA` the E-score was 0.303.
For `ACATGTAC`, the E-score was 0.265.

Other studies, line by line
The fold induction of `PhoQ, residues 284 288 289 292 302 303 SNSSNI` is reported as 1.04 (PhoP, residues 12 14 15 18 19 SYFRT (Escherichia coli, UniProt P23836); Sort-seq, measured: YFP reporter; E. coli; PhoQ-PhoP variant library, with: 10 µM Mg2+; baseline: high Mg2+ state, higher = stronger signaling).

Excerpt of the above (block 2):
For `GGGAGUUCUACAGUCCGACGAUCAGAAAAAUAAAACAAGCUGCAUUUAUAGACUUGCUUGGAAUUGAAAUGAACAUAGCCAGUUCCUACCCAACCCUGCCCUGCCUUUUUUUUUUUUUUUAAAGUGUGGUCCUUGGAAUUCUCGGGUGCCAA`, “RBNS enrichment (R)” read 0.546.
`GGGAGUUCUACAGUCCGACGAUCGGUUCCUCUAUUGGCUCUGCUCAAAUGUUGCAGGAUACAUAGCCCCAAAGAUGGUCUAGGAGCAAUCUAAGCUGUGUUACUCCAAAGGACAUGAAAAAGCUCAAGAGUAAUGGAAUUCUCGGGUGCCAA`: “RBNS enrichment (R)” 0.35.
Under “RBNS enrichment (R)”, `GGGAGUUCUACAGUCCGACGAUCGACUGGCCGUGAUGGGAAUGACAGUGAGAAGGUCCGCCUGUGCGCGUGGAACACUGUGGACGCUCGACUUCCAAGGGUCUUCUCACCCGUAAUGCUGCAUUACAUGUAGGUGGAAUUCUCGGGUGCCAA` is recorded as 0.651.
`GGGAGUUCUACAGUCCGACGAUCUUGUUUCUGGUUCACGUGGGGCCACCUGAAUCCGUGUCUGUGAGCAUUGACGCUUGAGUGAGCACGCCAGCGUCCUUGUCCUUAUGGGAUGCCUCAGGAUCUUGUUUCUGUGGAAUUCUCGGGUGCCAA`: “RBNS enrichment (R)” 0.525.
Under “RBNS enrichment (R)”, `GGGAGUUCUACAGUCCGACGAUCAGUCUUGUUACUCAAUGACUUUUGUCAUGGCAGUUUGUUCUACUUUAGACUGUAAAUUAUGCAUUAUAAAGAGUUCAUUUAAAGAAAACUACUUGGUACAAUAAUUAUUGUGGAAUUCUCGGGUGCCAA` is recorded as 0.356.
